Results pooled from the literature.
Each line is one published result; not all experiments were run side by side. Several values in a cell are separate wells, animals, samples, runs or records. ± gives the spread as reported.

CSCC[C@H](NC(=O)CNC(=O)[C@H](CCCCN)NC(=O)[C@H](CC(C)C)NC(=O)[C@@H]1CCCN1C(=O)[C@H](CO)NC(=O)[C@H](Cc1c[nH]cn1)NC(=O)[C@H](Cc1c[nH]c2ccccc12)NC(=O)[C@H](CCCNC(=N)N)NC(=O)[C@H](CC(C)C)NC(=O)[C@H](CCCNC(=N)N)NC(=O)[C@H](Cc1c[nH]c2ccccc12)NC(=O)[C@H](CS)NC(=O)CCCCCNC(=O)CN1CCN(CC(=O)O)CCN(CC(=O)O)CCN(CC(=O)O)CC1)C(=O)O [copper-64 labelled]  tissue uptake (ex vivo biodistribution; male C57BL/6J mice, testis; intravenous, 1.85 MBq, 18 h, B16-F10 tumour-bearing): 0.7 %ID/g
CC[C@H](C)[C@H](NC(=O)CNC(=O)[C@H](CCSC)NC(=O)[C@H](CCC(N)=O)NC(=O)[C@H](C)NC(=O)[C@H](CCC(N)=O)NC(=O)[C@@H](NC(=O)[C@H](CC(C)C)NC(=O)[C@H](C)NC(=O)[C@H](CO)NC(=O)[C@H](CCSC)NC(=O)[C@H](CCC(=O)O)NC(=O)[C@H](CC(C)C)NC(=O)[C@H](Cc1ccc(O)cc1)NC(=O)[C@H](CO)NC(=O)[C@H](CCC(=O)O)NC(=O)[C@H](CCC(N)=O)NC(=O)[C@H](CCCNC(=N)N)NC(=O)[C@H](CCCCN)NC(=O)[C@H](CC(=O)O)NC(=O)[C@H](CC(C)C)NC(=O)[C@H](CC(N)=O)NC(=O)[C@H](Cc1ccccc1)NC(=O)[C@H](CCC(=O)O)NC(=O)[C@H](CCCCN)NC(=O)[C@@H](NC(=O)[C@H](CC(C)C)NC(=O)[C@H](CCC(=O)O)NC(=O)[C@H](CCC(=O)O)NC(=O)[C@@H](NC(=O)[C@@H](NC(=O)[C@H](CCCNC(=N)N)NC(=O)[C@H](CCCCN)NC(=O)[C@H](C)NC(=O)[C@H](Cc1ccccc1)NC(=O)[C@H](CCC(=O)O)NC(=O)[C@H](CCC(=O)O)NC(=O)[C@H](CC(C)C)NC(=O)[C@@H](N)CO)C(C)C)C(C)C)C(C)C)[C@@H](C)CC)C(=O)N[C@@H](CO)C(=O)N[C@@H](CCC(=O)O)C(=O)N[C@@H](CCCNC(=N)N)C(=O)N[C@H](C(=O)N[C@H](C(=O)N[C@@H](CCC(=O)O)C(=O)N[C@H](C(=O)N[C@H](C(=O)N[C@@H](CC(C)C)C(=O)N[C@@H](CCCNC(=N)N)C(=O)N[C@@H](Cc1c[nH]cn1)C(=O)N[C@@H](C)C(=O)N[C@@H](C)C(=O)N[C@@H](CCC(N)=O)C(=O)N[C@H](C(=O)N[C@@H](CC(C)C)C(=O)N[C@@H](CCCCN)C(=O)O)[C@@H](C)O)C(C)C)[C@@H](C)CC)[C@@H](C)CC)[C@@H](C)CC  AUC(0-t) (male mouse, plasma; intravenous, 1 mg/kg): 22800 ng·h/mL
CC[C@H](C)[C@H](NC(=O)[C@H](CO)NC(=O)[C@H](CCCCN)NC(=O)[C@@H](NC(=O)[C@@H](NC(=O)[C@H](CC(=O)O)NC(=O)[C@H](CCC(=O)O)NC(=O)[C@@H](NC(=O)[C@H](CO)NC(=O)[C@@H](N)CCCNC(=N)N)[C@@H](C)O)[C@@H](C)CC)[C@@H](C)CC)C(=O)N[C@@H](CO)C(=O)NCC(=O)NCC(=O)NCC(=O)N[C@@H](Cc1ccccc1)C(=O)N[C@@H](CC(C)C)C(=O)N[C@@H](CC(N)=O)C(=O)N[C@@H](C)C(=O)N[C@@H](CCSC)C(=O)N[C@@H](CC(N)=O)C(=O)N[C@@H](C)C(N)=O  chronic toxic concentration (zebrafish embryos 28 hpf, E3 medium; 24 h): 25 µM
CC[C@H](C)[C@H](NC(=O)[C@H](Cc1ccc(O)cc1)NC(=O)[C@@H](NC(=O)[C@H](CCCNC(=N)N)NC(=O)[C@@H](N)CC(=O)O)C(C)C)C(=O)N[C@@H](Cc1c[nH]cn1)C(=O)N1CCC[C@H]1C(=O)O  AUC (Beagle dog both sexes, plasma; subcutaneous, 10 mg/kg/day, day 27, median noncompartmental): 749 ng·h/mL
CC(C)[C@@H]1NC(=O)CNC(=O)[C@H](CC(N)=O)NC(=O)[C@H](CCCNC(=N)N)NC(=O)[C@H](Cc2ccc(O)cc2)NC(=O)[C@H](C(C)C)NC(=O)[C@@H](NC(=O)[C@@H](NC(=O)[C@H](CC(N)=O)NC(=O)[C@H](Cc2c[nH]c3ccccc23)NC(=O)[C@H](C)NC(=O)[C@H](Cc2ccccc2)NC(=O)CNC(=O)[C@H](CCCCN)NC(=O)[C@H](Cc2ccccc2)NC(=O)[C@H](Cc2ccccc2)NC(=O)[C@H](CCCCN)NC(=O)OCC2c3ccccc3-c3ccccc32)C(C)C)CSSC[C@@H](C(=O)N[C@@H](Cc2c[nH]cn2)C(=O)N[C@@H](CCCNC(=N)N)C(=O)N[C@@H](CCCNC(=N)N)C(=O)N[C@@H](C)C(=O)N[C@@H](CC(N)=O)C(N)=O)NC(=O)[C@H](C(C)C)NC(=O)[C@H](CCCNC(=N)N)NC1=O  creatinine (ICR mice, serum; intraperitoneal, 5 mg/kg, day 5): 87.2 ± 1.32 µmol/L
CC(C)=CCC/C(C)=C\CCn1cc(CC(P(=O)(O)O)P(=O)(O)O)nn1  concentration (mouse CD-1, bile; intravenous, 0.3 mg/kg, 2 h): 2460 ± 1260 ng/mL
O=C1NC2(CC2)COc2ncc(F)cc2[C@H]2COCCN2c2ccn3ncc1c3n2  fibrinogen (Sprague-Dawley rats, male, blood; oral, 20 mg/kg/day, end of treatment, 4-week subacute toxicity): 2.48 ± 0.45 g/L
COc1ccc(C([O-])=CC(=O)c2ccc(C(C)(C)C)cc2)cc1.[Ru+2].c1ccc(-c2ccccn2)nc1.c1ccc(-c2ccccn2)nc1  viability (zebrafish larvae; 10 µM, 48 h, dark; relative to: normal): 0%
CC(C)C[C@@H](NC(=O)[C@@H](CCCNC(=N)N)NC(=O)[C@@H](Cc1c[nH]cn1)NC(=O)[C@@H](Cc1c[nH]c2ccccc12)NC(=O)[C@@H](Cc1c[nH]cn1)NC(=O)[C@@H](Cc1ccccc1)NC(=O)[C@H](NC(=O)[C@@H](Cc1ccc(O)cc1)NC(=O)CNC(=O)CNC(=O)CCOCCOCCOCCNC(=O)CN1CCN(CC(=O)O)CCN(CC(=O)O)CC1)[C@H](C)O)C(=O)N[C@H](CC(N)=O)C(=O)N1CCC[C@@H]1C(=O)O [gallium-68 labelled]  tumour-to-tissue ratio (male C57BL/6 mice; intravenous, 1.85 MBq, 60 min; relative to: tumour over brain): 11.8 ± 2.37
CCCCCCCCCCCC(=O)C(C)C(=O)N1CCC[C@H]1C(=O)NC(C)(C)C(=O)NC(C)(C)C(=O)NC(C)(C)C(=O)N[C@](C)(CC)C(=O)NCCC(=O)N[C@@H](C)C(=O)N[C@](C)(CC)C(=O)N[C@@H](C)C(=O)N[C@@H](CC(C)C)C(=O)N[C@](C)(CC)C(=O)NCCC(=O)N[C@@H](C)C(=O)N[C@](C)(CC)C(=O)NCCC(=O)N[C@@H](C)C(=O)NC(C)(C)C(=O)NC(C)(C)C(=O)NC(C)(C)C(=O)N[C@@H](C)C(=O)N[C@@H](CC(=O)O)C(=O)O (stereo partly drawn)  remaining intact peptide (LC-MS; 50% pooled human serum in Tris-HCl buffer; 40 µM, 2 h, pH 7.5, 37 °C; relative to: 0 h value): 42.7%
C[C@@H](Oc1ccc2c(c1)[C@H]1CCN[C@@]1(C)CO2)c1ccccc1  permeability (Pe) (lipid PAMPA; PBS; 10 µM, 16 h, pH 7.4, 25 °C): 2 ×10⁻⁶ cm/s
CC(=O)c1c(C)c2cnc(Nc3ccc(N4CCNCC4)cn3)nc2n(C2CCCC2)c1=O  ALT activity (C57BL/6 mice, blood; 25 mg/kg, P25, dosed P10 to P24): 39.7 ± 4 U/liter
CCCC[C@H]1C(=O)N(C)[C@@H](CCCC)C(=O)N[C@@H](CCCCNC(=S)Nc2ccc(CN3CCN(CC(=O)O)CCN(CC(=O)O)CC3)cc2)C(=O)N[C@H](C(=O)NCC(N)=O)CSCC(=O)N[C@@H](Cc2ccc(O)cc2)C(=O)N(C)[C@@H](C)C(=O)N[C@@H](CC(N)=O)C(=O)N2CCC[C@H]2C(=O)N[C@@H](Cc2cnc[nH]2)C(=O)N[C@@H](CCC(=O)O)C(=O)N2C[C@H](O)C[C@H]2C(=O)N[C@@H](Cc2c[nH]c3ccccc23)C(=O)N[C@@H](CO)C(=O)N[C@@H](Cc2cn(CC(=O)O)c3ccccc23)C(=O)N1C [fluorine-18 labelled]  tumour uptake (region of interest, PET/CT; HT-29 MSS xenograft, huPBMC NSG mouse, female, tumour; intravenous, 60 min, added: saline treated): 7.56 ± 1.64 %ID/mL
CSCC[C@H](N)C(=O)N[C@@H](C)C(=O)N[C@@H](CCCNC(=N)N)C(=O)N[C@@H](CCCNC(=N)N)C(=O)N[C@@H](CC(=O)O)C(=O)N[C@@H](CCCCN)C(=O)N[C@H](C(=O)N[C@@H](CC(=O)O)C(=O)N[C@@H](Cc1ccccc1)C(=O)N[C@@H](C)C(=O)N[C@@H](CCCNC(=N)N)C(=O)N[C@@H](CCCNC(=N)N)C(=O)N[C@@H](CCCNC(=N)N)C(=O)N[C@@H](CCCNC(=N)N)C(=O)NCCCCCC(=O)NCCCCC(NC(=O)CCCCCNC(=O)[C@H](CCCNC(=N)N)NC(=O)[C@H](CCCNC(=N)N)NC(=O)[C@H](CCCNC(=N)N)NC(=O)[C@H](CCCNC(=N)N)NC(=O)[C@H](C)NC(=O)[C@H](Cc1ccccc1)NC(=O)[C@H](CC(=O)O)NC(=O)[C@@H](NC(=O)[C@H](CCCCN)NC(=O)[C@H](CC(=O)O)NC(=O)[C@H](CCCNC(=N)N)NC(=O)[C@H](CCCNC(=N)N)NC(=O)[C@H](C)NC(=O)[C@@H](N)CCSC)[C@@H](C)O)C(=O)NCCCCC(NC(=O)C(CCCCNC(=O)CCCCCNC(=O)[C@H](CCCNC(=N)N)NC(=O)[C@H](CCCNC(=N)N)NC(=O)[C@H](CCCNC(=N)N)NC(=O)[C@H](CCCNC(=N)N)NC(=O)[C@H](C)NC(=O)[C@H](Cc1ccccc1)NC(=O)[C@H](CC(=O)O)NC(=O)[C@@H](NC(=O)[C@H](CCCCN)NC(=O)[C@H](CC(=O)O)NC(=O)[C@H](CCCNC(=N)N)NC(=O)[C@H](CCCNC(=N)N)NC(=O)[C@H](C)NC(=O)[C@@H](N)CCSC)[C@@H](C)O)NC(=O)CCCCCNC(=O)[C@H](CCCNC(=N)N)NC(=O)[C@H](CCCNC(=N)N)NC(=O)[C@H](CCCNC(=N)N)NC(=O)[C@H](CCCNC(=N)N)NC(=O)[C@H](C)NC(=O)[C@H](Cc1ccccc1)NC(=O)[C@H](CC(=O)O)NC(=O)[C@@H](NC(=O)[C@H](CCCCN)NC(=O)[C@H](CC(=O)O)NC(=O)[C@H](CCCNC(=N)N)NC(=O)[C@H](CCCNC(=N)N)NC(=O)[C@H](C)NC(=O)[C@@H](N)CCSC)[C@@H](C)O)C(N)=O)[C@@H](C)O (stereo partly drawn)  tissue distribution (C57BL/6 mouse female, brain; dose not given, 3 h; relative to: total): 0.33% and 0.3% and 0.2%
CCCCCCCCCCCCCC(=O)N[C@H](CCN)C(=O)N[C@@H]1C(=O)N[C@@H](CCN)C(=O)N[C@@H](CC(C)C)C(=O)N[C@@H](CCN)C(=O)N[C@H](Cc2ccccc2)C(=O)N[C@@H](CC(C)C)C(=O)N[C@@H](CCN)C(=O)N[C@H](CCN)C(=O)N[C@@H](C(C)C)C(=O)N[C@@H](CC(=O)O)C(=O)O[C@@H]1C  AUC extrapolated percentage (rat; intravenous, 5 mg/kg): 0.81 ± 0.42%
CN1Cc2cc(Cl)ccc2-n2c(nnc2C2CCN(c3cccc([18F])n3)CC2)C1  tissue uptake (C57BL/6 mouse male, kidney; intravenous, 3.7 MBq, 60 min): 6.88 ± 0.35 %ID/g
COc1ccc(CNc2ccc3c(c2)S(=O)(=O)C=C3)cc1  spleen weight (male C57BL/6 mice; i.p., 10 mg/kg, day 8, repeated dosing): 0.123 g
CC[C@H](C)[C@H](NC(=O)[C@H](CCCCN)NC(=O)CNC(=O)[C@H](CC(C)C)NC(=O)[C@H](Cc1ccccc1)NC(=O)[C@H](CCCCN)NC(=O)[C@H](CO)NC(=O)[C@H](Cc1ccccc1)NC(=O)[C@H](Cc1c[nH]c2ccccc12)NC(=O)[C@H](CCC(N)=O)NC(=O)[C@@H](NC(=O)[C@H](Cc1ccccc1)NC(=O)CCCCCNC(=O)CN1CCN(CC(=O)O)CCN(CC(=O)O)CCN(CC(=O)O)CC1)C(C)C)C(=O)N[C@@H](CCC(=O)O)C(=O)N1CCC[C@H]1C(=O)N[C@H](CC(=O)O)C(=O)N[C@H](C(=O)N[C@@H](CO)C(=O)N[C@@H](CCC(N)=O)C(=O)N[C@H](C(=O)N[C@@H](CCC(N)=O)C(=O)N[C@@H](CC(=O)O)C(=O)N1CCC[C@H]1C(=O)N[C@@H](CC(N)=O)C(=O)N[C@@H](CC(=O)O)C(=O)N[C@@H](CCC(N)=O)C(=O)N[C@@H](Cc1ccc(O)cc1)C(=O)N[C@@H](CCC(=O)O)C(=O)N1CCC[C@H]1C(=O)N[C@@H](Cc1ccccc1)C(=O)O)C(C)C)C(C)C [copper-64 labelled]  tissue uptake (C57BL/6 mice, male, MC-38 tumour-bearing, muscle; 2 h, checkpoint inhibitor-treated): 0.21 ± 0.03 %ID/g
